Assay results pooled from the literature.
Every numbered part comes from another study and shows a few of its results, in no order.
Sequence of UniProt O75676 (whole entry, looked up): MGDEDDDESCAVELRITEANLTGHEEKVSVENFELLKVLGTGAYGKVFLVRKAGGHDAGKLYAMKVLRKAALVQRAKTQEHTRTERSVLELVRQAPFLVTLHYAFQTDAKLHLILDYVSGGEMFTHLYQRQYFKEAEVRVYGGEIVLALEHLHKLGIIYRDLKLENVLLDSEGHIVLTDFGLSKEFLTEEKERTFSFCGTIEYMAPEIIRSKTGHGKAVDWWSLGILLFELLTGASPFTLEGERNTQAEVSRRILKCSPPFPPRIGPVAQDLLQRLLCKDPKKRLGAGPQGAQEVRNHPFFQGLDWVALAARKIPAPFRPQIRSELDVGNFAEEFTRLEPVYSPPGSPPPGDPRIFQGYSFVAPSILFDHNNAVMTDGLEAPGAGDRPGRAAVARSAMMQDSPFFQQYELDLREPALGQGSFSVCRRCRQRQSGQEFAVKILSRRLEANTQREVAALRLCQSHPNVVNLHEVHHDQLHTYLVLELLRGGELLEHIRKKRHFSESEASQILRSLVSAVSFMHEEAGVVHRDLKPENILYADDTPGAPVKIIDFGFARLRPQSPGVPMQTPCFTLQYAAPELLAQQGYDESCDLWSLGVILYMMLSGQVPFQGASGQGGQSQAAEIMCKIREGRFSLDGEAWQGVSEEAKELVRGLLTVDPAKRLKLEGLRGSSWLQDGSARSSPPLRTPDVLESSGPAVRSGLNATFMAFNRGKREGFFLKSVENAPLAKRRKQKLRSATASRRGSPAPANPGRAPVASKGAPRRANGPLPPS
Sequence of UniProt Q8N4C8 (whole entry, looked up): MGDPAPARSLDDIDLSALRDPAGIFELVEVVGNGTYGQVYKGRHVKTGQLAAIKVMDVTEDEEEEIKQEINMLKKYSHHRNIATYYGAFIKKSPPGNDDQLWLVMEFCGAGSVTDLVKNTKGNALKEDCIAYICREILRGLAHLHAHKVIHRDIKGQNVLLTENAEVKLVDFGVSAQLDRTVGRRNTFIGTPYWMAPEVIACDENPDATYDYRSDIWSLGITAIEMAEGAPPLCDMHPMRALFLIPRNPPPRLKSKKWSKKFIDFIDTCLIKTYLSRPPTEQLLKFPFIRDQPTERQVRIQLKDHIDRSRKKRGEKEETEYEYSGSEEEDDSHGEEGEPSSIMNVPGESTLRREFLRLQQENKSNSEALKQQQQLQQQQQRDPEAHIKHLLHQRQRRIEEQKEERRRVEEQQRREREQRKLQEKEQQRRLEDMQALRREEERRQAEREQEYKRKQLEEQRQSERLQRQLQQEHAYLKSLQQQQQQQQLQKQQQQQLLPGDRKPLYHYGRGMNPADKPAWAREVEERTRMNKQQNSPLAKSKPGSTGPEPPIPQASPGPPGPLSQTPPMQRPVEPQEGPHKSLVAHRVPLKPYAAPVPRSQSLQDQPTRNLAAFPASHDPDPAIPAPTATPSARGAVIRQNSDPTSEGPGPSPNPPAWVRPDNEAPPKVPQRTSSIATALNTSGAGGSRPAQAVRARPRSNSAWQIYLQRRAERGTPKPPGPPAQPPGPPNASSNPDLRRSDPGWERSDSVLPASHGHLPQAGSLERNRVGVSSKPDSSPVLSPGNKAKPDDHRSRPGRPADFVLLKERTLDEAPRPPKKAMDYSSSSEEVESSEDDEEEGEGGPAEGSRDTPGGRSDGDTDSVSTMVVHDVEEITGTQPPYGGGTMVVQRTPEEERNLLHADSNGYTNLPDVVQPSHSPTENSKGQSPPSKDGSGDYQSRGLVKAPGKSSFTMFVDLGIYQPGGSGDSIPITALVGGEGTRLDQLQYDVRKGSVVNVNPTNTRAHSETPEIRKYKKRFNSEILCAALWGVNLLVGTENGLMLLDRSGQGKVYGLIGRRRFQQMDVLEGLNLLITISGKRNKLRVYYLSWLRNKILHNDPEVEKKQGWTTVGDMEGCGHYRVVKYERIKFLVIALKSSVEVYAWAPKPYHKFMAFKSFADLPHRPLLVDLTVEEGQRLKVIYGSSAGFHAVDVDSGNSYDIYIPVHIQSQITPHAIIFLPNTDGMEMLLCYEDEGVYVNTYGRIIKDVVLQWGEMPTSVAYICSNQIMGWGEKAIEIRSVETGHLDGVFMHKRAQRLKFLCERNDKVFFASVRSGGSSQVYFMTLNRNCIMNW
Sequence of UniProt Q16539 (whole entry, looked up): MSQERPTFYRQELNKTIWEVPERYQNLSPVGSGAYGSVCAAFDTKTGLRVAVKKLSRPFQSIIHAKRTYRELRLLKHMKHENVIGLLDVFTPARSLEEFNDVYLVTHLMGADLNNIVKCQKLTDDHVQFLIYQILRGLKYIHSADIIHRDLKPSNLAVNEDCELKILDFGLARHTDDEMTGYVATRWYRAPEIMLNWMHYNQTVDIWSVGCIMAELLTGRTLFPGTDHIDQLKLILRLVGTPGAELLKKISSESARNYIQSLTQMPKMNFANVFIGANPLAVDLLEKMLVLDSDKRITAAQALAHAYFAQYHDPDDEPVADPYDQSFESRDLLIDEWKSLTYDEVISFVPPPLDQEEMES
Sequence of UniProt P35968 (whole entry, looked up): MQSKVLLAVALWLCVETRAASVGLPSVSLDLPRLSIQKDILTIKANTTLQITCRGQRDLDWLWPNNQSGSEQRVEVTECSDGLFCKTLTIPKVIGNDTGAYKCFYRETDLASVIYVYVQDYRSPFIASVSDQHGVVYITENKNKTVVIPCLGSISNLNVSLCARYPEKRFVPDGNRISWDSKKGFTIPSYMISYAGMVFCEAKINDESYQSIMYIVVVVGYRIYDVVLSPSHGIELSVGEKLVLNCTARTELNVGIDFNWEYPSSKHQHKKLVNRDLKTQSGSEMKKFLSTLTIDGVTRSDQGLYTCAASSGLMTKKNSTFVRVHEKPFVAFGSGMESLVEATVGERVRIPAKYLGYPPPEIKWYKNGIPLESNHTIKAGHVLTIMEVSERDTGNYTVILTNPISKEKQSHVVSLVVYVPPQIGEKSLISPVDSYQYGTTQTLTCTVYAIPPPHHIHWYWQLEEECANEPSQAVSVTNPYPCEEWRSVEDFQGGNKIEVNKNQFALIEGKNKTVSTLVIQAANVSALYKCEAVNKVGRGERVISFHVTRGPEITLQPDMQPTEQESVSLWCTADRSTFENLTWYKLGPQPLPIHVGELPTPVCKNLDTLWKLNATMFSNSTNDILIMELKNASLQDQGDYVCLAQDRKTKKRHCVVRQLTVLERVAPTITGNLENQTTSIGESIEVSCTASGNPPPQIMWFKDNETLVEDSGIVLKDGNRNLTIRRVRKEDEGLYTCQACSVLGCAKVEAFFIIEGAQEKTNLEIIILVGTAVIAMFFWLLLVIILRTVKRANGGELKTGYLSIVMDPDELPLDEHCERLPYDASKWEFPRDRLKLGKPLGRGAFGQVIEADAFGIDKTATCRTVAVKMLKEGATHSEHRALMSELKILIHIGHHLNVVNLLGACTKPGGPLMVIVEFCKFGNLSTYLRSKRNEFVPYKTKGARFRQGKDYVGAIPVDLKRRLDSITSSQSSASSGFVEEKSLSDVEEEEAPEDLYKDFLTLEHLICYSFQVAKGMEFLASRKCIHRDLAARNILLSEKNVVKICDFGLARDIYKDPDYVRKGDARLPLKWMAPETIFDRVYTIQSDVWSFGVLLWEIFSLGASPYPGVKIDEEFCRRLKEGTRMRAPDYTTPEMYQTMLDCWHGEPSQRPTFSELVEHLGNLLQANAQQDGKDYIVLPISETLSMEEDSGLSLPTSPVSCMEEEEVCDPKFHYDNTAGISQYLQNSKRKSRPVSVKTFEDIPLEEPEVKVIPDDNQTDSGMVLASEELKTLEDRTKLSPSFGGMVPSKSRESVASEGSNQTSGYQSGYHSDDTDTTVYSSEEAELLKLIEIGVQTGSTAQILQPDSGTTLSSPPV
Sequence of UniProt Q6P2M8 (whole entry, looked up): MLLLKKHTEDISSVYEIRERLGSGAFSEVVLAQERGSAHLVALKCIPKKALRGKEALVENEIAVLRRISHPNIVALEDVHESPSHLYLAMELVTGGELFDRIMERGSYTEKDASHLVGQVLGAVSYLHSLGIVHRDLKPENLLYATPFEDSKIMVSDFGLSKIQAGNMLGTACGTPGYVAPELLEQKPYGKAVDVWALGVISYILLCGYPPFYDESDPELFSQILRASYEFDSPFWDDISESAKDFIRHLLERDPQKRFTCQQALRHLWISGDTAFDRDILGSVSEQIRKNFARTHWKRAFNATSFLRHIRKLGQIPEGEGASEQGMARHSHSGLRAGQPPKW
Sequence of UniProt P28482 (whole entry, looked up): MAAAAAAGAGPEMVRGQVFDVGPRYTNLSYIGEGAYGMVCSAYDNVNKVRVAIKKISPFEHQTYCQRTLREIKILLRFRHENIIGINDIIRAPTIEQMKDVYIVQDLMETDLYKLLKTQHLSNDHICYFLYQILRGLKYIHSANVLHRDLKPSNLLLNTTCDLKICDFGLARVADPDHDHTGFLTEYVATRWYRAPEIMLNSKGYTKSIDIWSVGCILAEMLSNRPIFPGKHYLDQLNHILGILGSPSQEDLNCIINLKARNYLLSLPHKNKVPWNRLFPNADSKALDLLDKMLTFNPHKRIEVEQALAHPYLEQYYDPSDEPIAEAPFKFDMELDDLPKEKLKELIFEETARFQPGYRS
Sequence of UniProt Q02750 (whole entry, looked up): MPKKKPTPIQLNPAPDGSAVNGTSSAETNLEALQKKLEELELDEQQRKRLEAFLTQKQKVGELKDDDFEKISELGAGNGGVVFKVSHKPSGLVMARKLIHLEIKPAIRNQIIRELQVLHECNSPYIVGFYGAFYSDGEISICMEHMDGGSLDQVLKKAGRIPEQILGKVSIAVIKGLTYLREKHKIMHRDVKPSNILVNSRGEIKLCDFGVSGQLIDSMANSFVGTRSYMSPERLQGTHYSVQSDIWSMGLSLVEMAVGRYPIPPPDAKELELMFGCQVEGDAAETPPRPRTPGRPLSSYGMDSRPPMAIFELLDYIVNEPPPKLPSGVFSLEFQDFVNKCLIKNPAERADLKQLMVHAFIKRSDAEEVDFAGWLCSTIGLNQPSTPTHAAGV

Series 1 — observed: cell-free assay; technique: competition with immobilised ligand; concentration: 0.1 µM; endpoint: remaining binding
Compound: CCOC(=O)c1cc2cc(-c3cc(C(=O)NCc4ccc(C(=O)O)cc4)nn3C)ccc2[nH]1
MAP kinase-activated protein kinase 5 (MAPKAPK5, Homo sapiens, UniProt Q8IW41): 92%
Fibroblast growth factor receptor 3 (FGFR3, Homo sapiens, UniProt P22607, G697C): 92%
Aurora kinase A (AURKA, Homo sapiens, UniProt O14965): 90%
Ribosomal protein S6 kinase alpha-4, C-terminal kinase domain (RPS6KA4, Homo sapiens, UniProt O75676): 86%
Insulin-like growth factor 1 receptor (IGF1R, Homo sapiens, UniProt P08069): 82%

Series 2 — species: mouse; sample: microsomes or S9; concentration: 2 µM; time: 0.5 h; endpoint: remaining compound
CCN(CC)S(=O)(=O)c1ccc(OC)c(NC(=O)CCCOc2ccc(Cl)c(C)c2)c1: 2.34%
COC(=O)Cn1c(=O)cc(C)c2c(OC)ccc(OC)c21: 0.11%
COc1ccc(C)cc1NC(=O)c1cc2c(=O)n3cccc(C)c3nc2n1Cc1ccccc1: 60.8%
CC(Cc1ccsc1)NC(=O)c1cccc2c1OC(C)C(=O)N2 (centres unmarked): 2.8%

Series 3 — SMILES: O=c1cc(N2CCOCC2)oc2c1ccc1ccccc12; observed: enzyme activity; action: inhibitor; concentration: 0.5 µM; relative to: control; endpoint: remaining activity
Ribosomal protein S6 kinase alpha-4 (RPS6KA4, Homo sapiens, UniProt O75676): 99.4%
Calcium/calmodulin-dependent protein kinase type 1B (PNCK, Homo sapiens, UniProt Q6P2M8): 97.4%
Serine/threonine-protein kinase MARK2 (MARK2, Homo sapiens, UniProt Q7KZI7): 101%
Mitogen-activated protein kinase 14 (MAPK14, Homo sapiens, UniProt Q16539): 96.7%
Vascular endothelial growth factor receptor 2 (KDR, Homo sapiens, UniProt P35968): 86.8%
Calcium/calmodulin-dependent protein kinase type IV (CAMK4, Homo sapiens, UniProt Q16566): 94%
Dual specificity protein kinase CLK3 (CLK3, Homo sapiens, UniProt P49761): 81.1%
Misshapen-like kinase 1 (MINK1, Homo sapiens, UniProt Q8N4C8): 96%
Tyrosine-protein kinase TXK (TXK, Homo sapiens, UniProt P42681): 98.9%
Serine/threonine-protein kinase MRCK beta (CDC42BPB, Homo sapiens, UniProt Q9Y5S2): 98.3%
MAP/microtubule affinity-regulating kinase 4 (MARK4, Homo sapiens, UniProt Q96L34): 102%
Mitogen-activated protein kinase 1 (MAPK1, Homo sapiens, UniProt P28482): 104%
Dual specificity mitogen-activated protein kinase kinase 1 (MAP2K1, Homo sapiens, UniProt Q02750): 99.3%

Series 4 — cell line: HaCaT; concentration: 100 µM; time: 18 h; endpoint: viability
CC[C@]1(O)C[C@H]2CN(CCc3c([nH]c4ccccc34)[C@@](C(=O)OC)(c3cc4c(cc3OC)N(C=O)[C@H]3[C@@](O)(C(=O)OC)[C@H](OC(C)=O)[C@]5(CC)C=CCN6CC[C@]43[C@@H]65)C2)C1: 72.5%
CC(C)/N=c1\cc2n(-c3ccc(Cl)cc3)c3ccccc3nc-2cc1Nc1ccc(Cl)cc1: 50.6%
Cn1c(=O)c2c(ncn2CCO)n(C)c1=O: 107%
O=C(Nc1ncc([N+](=O)[O-])s1)c1ccccc1O: 35.1%

For quick reference, copied from above (series 3):
Mitogen-activated protein kinase 1 (MAPK1, Homo sapiens, UniProt P28482): 104%
Vascular endothelial growth factor receptor 2 (KDR, Homo sapiens, UniProt P35968): 86.8%
Misshapen-like kinase 1 (MINK1, Homo sapiens, UniProt Q8N4C8): 96%
MAP/microtubule affinity-regulating kinase 4 (MARK4, Homo sapiens, UniProt Q96L34): 102%
